Results gathered from unrelated publications.
± gives the spread as reported.

Cc1ncsc1-c1ccc(C(C)NC(=O)C2CC(O)CN2C(=O)C(NC(=O)CCCCCCCCCCN2CCCC(Nc3ncc(Cl)c(Nc4ccccc4S(=O)(=O)C(C)C)n3)C2)C(C)(C)C)cc1 (stereo not shown)  log2 fold change (22Rv1; RNA-seq, item: SPSB2 mRNA; concentration not given; reference: DMSO): -1.57
[123I]c1ccc2nc(-c3ccc(-n4ccnn4)nc3)cn2c1  tissue uptake (male Wistar rat, small intestine; intravenous, 4 MBq, 14 h): 0.064 ± 0.01 %ID/g
CN1CCCNC(=O)c2cccc(c2)C(=O)NCCCN(C)CCCNc2cccc3c2C(=O)c2cccc(c2C3=O)NCCC1  log2 fold change (SAS; RNA-Seq, item: BET1 mRNA; 1 µM, 6 h; reference: untreated cells): -2.08
CCCC[C@H](NC(=O)COCCOCCNC(=O)CN1CCN(CC(=O)O)CCN(CC(=O)O)CC1)C(=O)N[C@H]1CC(=O)NCCCC[C@@H](C(N)=O)NC(=O)[C@H](Cc2c[nH]c3ccccc23)NC(=O)[C@H](CCCNC(=N)N)NC(=O)[C@@H](Cc2ccccc2)NC(=O)[C@H](Cc2c[nH]cn2)NC1=O [fluorine-18 labelled]  tissue uptake (C57 mice B16/F10 melanoma, intestines; intravenous, 1 h, added: NDP-MSH 10 µg blockade): 1.4 ± 0.17 %ID
O=C1NC2(CC2)COc2ncc(F)cc2[C@H]2COCCN2c2ccn3ncc1c3n2  polyploid cells (CHL; chromosomal aberration test; 300 µg/mL, 4 h, with rat liver S9): 0%
CNS(=O)(=O)Nc1nccc(Cc2c(C)c3ccc(Oc4ncccc4F)cc3oc2=O)c1F  IC50 (LN-229; cell viability; 7 days): 46.9 nM
COc1cccc(OC)c1-c1cc(C(=O)NC2(C(=O)O)C3CC4CC(C3)CC2C4)nn1-c1ccc(C(=O)N(C)CCOCCOCCN(C)C(=O)[C@H](CCCCNC(=O)[C@H](CC(C)C)NC(=O)C2OC2C(=O)O)NC(=O)CN2CCN(CC(=O)[O-])CCN(CC(=O)[O-])CCN(CC(=O)[O-])CC2)cc1C(C)C.[177Lu+3] (mixture of isomers)  tissue uptake (mouse, HT-29 xenograft, HT-29 tumour; 4 h post injection): 4.6 %ID/g
CC(C)C[C@H](NC(=O)[C@@H](CCCCNC(=O)[C@@H](Cc1ccccc1)NC(=O)CCCCCCCNC(=O)CN1CCN(CC(=O)O)CCN(CC(=O)O)CCN(CC(=O)O)CC1)NC(=O)[C@H](Cc1ccc(O)cc1)NC(=O)[C@H](CO)NC(=O)[C@H](Cc1c[nH]c2ccccc12)NC(=O)[C@H](Cc1c[nH]cn1)NC(=O)[C@@H]1CCC(=O)N1)C(=O)N[C@@H](CCCNC(=N)N)C(=O)N1CCC[C@H]1C(=O)NCC(N)=O [indium-111 labelled]  tissue uptake (male athymic nude mice, DU-145 prostate cancer xenograft, stomach; intravenous, dose not given, 1 h, added: unlabeled blocking peptide 10 µg): 0.42 ± 0.3 %ID/g
O=C(NCC1OC2CCC=CCCC2O1)c1ccc([18F])nc1 (stereo not shown)  tissue uptake (healthy female BALB/c nude mice, lungs; intravenous, 7.4 MBq per mouse, 10 min): 6.4 ± 1.9 %ID/g
N#C[C@@H]1CC(F)(F)CN1C(=O)CNC(=O)c1ccnc2c(NC(=O)[C@@H](N)CCCCNC(=O)CCOCCOCCOCCOCCOCCOCCNC(=O)CN3CCN(CC(=O)[O-])CCN(CC(=O)[O-])CCN(CC(=O)[O-])CC3)cccc12.[177Lu+3]  tissue uptake (mouse, U-87 MG tumour xenograft, brain; 1 h): 0.03 ± 0.01 %ID/g
COc1cccc(OC)c1-c1cc(C(=O)NC2(C(=O)O)C3CC4CC(C3)CC2C4)nn1-c1ccc(C(=O)NCCNC(=O)[C@H](CCCCNC(=O)[C@H](CC(C)C)NC(=O)C2OC2C(=O)O)NC(=O)CN2CCN(CC(=O)[O-])CCN(CC(=O)[O-])CCN(CC(=O)[O-])CC2)cc1C(C)C.[177Lu+3] (mixture of isomers)  tissue uptake (mouse, HT-29 xenograft, lung; 24 h post injection): 1.8 %ID/g
C=C(NC(=O)c1csc(-c2nc3c(cc2O)-c2nc(cs2)C(=O)NC(C(C)O)C(=O)NC(=C(C)OC)c2nc(cs2)C(=O)NC2c4nc(cs4)C(=O)NC(COC(=O)c4c5c6c(cccc6n4O)COC(=O)C(OC4CC(C)(O)C(N(C)C)C(C)O4)C2OC5)c2nc-3cs2)n1)C(N)=O (stereo not shown)  AUC(0-t) (male cynomolgus monkey, plasma; intravenous, 9 mg/kg, single dose, infusion): 47400 ng·h/mL
COc1cccc(OC)c1-c1cc(C(=O)NC2(C(=O)O)C3CC4CC(C3)CC2C4)nn1-c1ccc(C(=O)N(C)CCCN(C)C(=O)[C@H](CCCCNC(=O)[C@H](CC(C)C)NC(=O)C2OC2C(=O)O)NC(=O)CN2CCN(CC(=O)[O-])CCN(CC(=O)[O-])CCN(CC(=O)[O-])CC2)cc1C(C)C.[177Lu+3] (mixture of isomers)  tissue uptake (mouse, HT-29 xenograft, spleen; 4 h post injection): 0.577 %ID/g
O=C(O)CCCOc1ccc([18F])cc1-c1cc(-c2ccccc2C(F)(F)F)n(-c2ccccc2)n1  tissue uptake (mouse, blood; intravenous, dose not given, 30 min): 0.23 ± 0.03 %ID/g
COC1CN([C@H]2CC[C@H]([C@@]3(C)Oc4c(Cl)cc(C(=O)NCc5c(SC)cc(C)[nH]c5=O)c(C)c4O3)CC2)C1  log2 fold change (RNA-seq, item: RIDA; human, whole blood; dose not given, 24 h; reference: pretreatment baseline): 2.3
COc1cccc(OC)c1-c1cc(C(=O)NC2(C(=O)O)C3CC4CC(C3)CC2C4)nn1-c1ccc(C(=O)N(C)CCCN(C)CCCN(C)C(=O)[C@H](CCCCNC(=O)[C@H](CC(C)C)NC(=O)C2OC2C(=O)O)NC(=O)CN2CCN(CC(=O)[O-])CCN(CC(=O)[O-])CCN(CC(=O)[O-])CC2)cc1C(C)C.[177Lu+3] (mixture of isomers)  tissue uptake (mouse, HT-29 xenograft, spleen; 24 h post injection): 0.8 %ID/g
N#C[C@@H]1CC(F)(F)CN1C(=O)CNC(=O)c1ccnc2c(NC(=O)[C@H](CCCCNC(=O)CCOCCOCCOCCOCCOCCOCCNC(=O)CN3CCN(CC(=O)[O-])CCN(CC(=O)[O-])CCN(CC(=O)[O-])CC3)NC(=O)CCCc3ccc(I)cc3)cccc12.[177Lu+3]  tissue uptake (mouse, U-87 MG tumour xenograft, lung; 24 h): 2.97 ± 0.8 %ID/g
Cc1cc(C)n(CCN(CCN)CCCCCCNC(=O)[C@@H](N)Cc2c[nH]c3ccccc23)n1.[99Tc+].[C-]#[O+].[C-]#[O+].[C-]#[O+]  tissue uptake (BALB/c nude mice, A549 xenograft, blood; intravenous, 4 h): 0.38 ± 0.13 %IA/g
CCCC[C@H](NC(=O)CNC(=O)CNC(=O)[C@H](CCCCNC(=O)[C@H](CC(=O)O)NC(=O)C(C)c1ccc(CC(C)C)cc1)NC(=O)CN1CCN(CC(=O)O)CCN(CC(=O)O)CCN(CC(=O)O)CC1)C(=O)N[C@H]1CC(=O)NCCCC[C@@H](C(N)=O)NC(=O)[C@H](Cc2c[nH]c3ccccc23)NC(=O)[C@H](CCCNC(=N)N)NC(=O)[C@@H](Cc2ccccc2)NC(=O)[C@H](Cc2c[nH]cn2)NC1=O (stereo partly shown) [lutetium-177 labelled]  tissue uptake (C57 mouse, heart; intravenous, 2 h, added: 10 µg NDP-MSH co-injection): 0.77 ± 0.15 %ID/g

Excerpt of the above:
O=C(O)CCCOc1ccc([18F])cc1-c1cc(-c2ccccc2C(F)(F)F)n(-c2ccccc2)n1  tissue uptake (mouse, blood; intravenous, dose not given, 30 min): 0.23 ± 0.03 %ID/g
